Measured values of several laboratories.
Lines come from different studies, so protocols differ.
Sample: Caco-2

| Compound | conditions | endpoint | value |
| --- | --- | --- | --- |
| N#C/N=C(\N)Nc1cccc(C(=O)NCC(=O)NC[C@H](NC(=O)c2c(Cl)cc(-c3ccccc3)cc2Cl)C(=O)O)c1 | – | Papp A→B | 0.15 ×10⁻⁶ cm/s |
| CCCCC(CC)CNC(=N)NC(=N)NCCC (centres unmarked) | 5 µM, 2 h | Papp A→B | < 0.03 ×10⁻⁶ cm/s |
| O=C(CNC(=O)c1cccc(NC2=NCCCO2)c1)NC[C@H](NC(=O)c1c(Cl)cc(-c2ccccc2)cc1Cl)C(=O)O | – | Papp A→B | 0.5 ×10⁻⁶ cm/s |
| O=C(Nc1ccc(C(F)F)cc1)[C@H](CC1CCCCC1)Nc1nn2c(=O)ccnc2s1 | 5 µM, 2 h, pH 7.4 | Papp A→B | 1.67 ×10⁻⁶ cm/s |
| CCCCC(CC)CNC(=N)NC(=N)NCCCCCCCCNC(=N)NC(=N)NCC(CC)CCCC (centres unmarked) | 5 µM, 2 h | Papp B→A | 0.3 ×10⁻⁶ cm/s |
| N#Cc1ccnc(N2C(=O)CC[C@H]2C(=O)N(c2cncc(F)c2)[C@H](C(=O)NC2CC(F)(F)C2)c2ccccc2Cl)c1 | – | Papp A→B | 15 ×10⁻⁶ cm/s |
| CNC(=N)NC(=N)NCCCCCCNC(=N)NC(=N)NC | 5 µM, 2 h | Papp A→B | 0.62 ×10⁻⁶ cm/s |
| O=C(CNC(=O)c1cccc(NC2=NCC(F)(F)CN2)c1)NC[C@H](NC(=O)c1c(Cl)cc(-c2ccccc2)cc1Cl)C(=O)O | – | Papp B→A | 2.1 ×10⁻⁶ cm/s |
| O=c1[nH]c2ccccc2c(=O)n1O | 10 µM | Papp A→B | 3.4 ×10⁻⁶ cm/s |
| N#Cc1cccc(-c2ccc(=O)n(Cc3cccc(-c4ncc(OCC5CCN(CC(=O)N6CCN(c7ccc8c(c7)C(=O)N(C7CCC(=O)NC7=O)C8=O)CC6)CC5)cn4)c3)n2)c1 (centres unmarked) | 2 µM, 2 h, pH 7.4 | Papp A→B | 0.06 ×10⁻⁶ cm/s |
| O=c1c(-c2cnn(-c3ccccc3)c2)c(C(F)(F)F)oc2c(O)c(O)ccc12 | – | Papp B→A | 61.3 ×10⁻⁶ cm/s |
| N#Cc1ccnc(N2C(=O)[C@@H](O)C[C@H]2C(=O)N(c2cc(F)cc(F)c2)[C@H](C(=O)NC2CC(F)(F)C2)c2ccccc2Cl)c1 | – | Papp A→B | 1.9 ×10⁻⁶ cm/s |
| CN1CCC[C@@H]1C(=O)N[C@@H](Cc1ccc(-c2ccccc2)cc1)B(O)O | 5 µM, 1 h | Papp A→B | 13 ×10⁻⁶ cm/s |
| CS(=O)(=O)c1ccc(-c2cc(Cl)c(C(=O)N[C@@H](CNC(=O)CNC(=O)c3cccc(NC(=N)N)c3)C(=O)O)c(Cl)c2)cc1 | – | Papp B→A | 0.5 ×10⁻⁶ cm/s |
| CCC(CC)CNC(=N)NC(=N)NCCCCCCNC(=N)NC(=N)NCC(CC)CC | 5 µM, 2 h | Papp B→A | 0.53 ×10⁻⁶ cm/s |
| O=C(CNC(=O)c1cccc(NC2=NCCCN2)c1)NC[C@H](NC(=O)c1c(Cl)cc(-c2ccccc2)cc1Cl)C(=O)O | – | Papp B→A | 1.1 ×10⁻⁶ cm/s |
| O=c1c(-c2cnn(-c3ccc(Cl)cc3)c2)c(C(F)(F)F)oc2c(O)c(O)ccc12 | – | Papp A→B | 51.2 ×10⁻⁶ cm/s |

A few entries again:
| Compound | conditions | endpoint | value |
| --- | --- | --- | --- |
| CCCCC(CC)CNC(=N)NC(=N)NCCCCCCCCNC(=N)NC(=N)NCC(CC)CCCC (centres unmarked) | 5 µM, 2 h | Papp B→A | 0.3 ×10⁻⁶ cm/s |
